Experimental data from different studies.
Parts stem from different laboratories: compare values within a part only. Substitutions count along the parent as printed.

Sample 1
Target: Sal-like protein 4, full length isoform A (SALL4, Homo sapiens, UniProt Q9UJQ4, residues 1-1053)
Chain of UniProt Q9UJQ4 (whole entry, looked up): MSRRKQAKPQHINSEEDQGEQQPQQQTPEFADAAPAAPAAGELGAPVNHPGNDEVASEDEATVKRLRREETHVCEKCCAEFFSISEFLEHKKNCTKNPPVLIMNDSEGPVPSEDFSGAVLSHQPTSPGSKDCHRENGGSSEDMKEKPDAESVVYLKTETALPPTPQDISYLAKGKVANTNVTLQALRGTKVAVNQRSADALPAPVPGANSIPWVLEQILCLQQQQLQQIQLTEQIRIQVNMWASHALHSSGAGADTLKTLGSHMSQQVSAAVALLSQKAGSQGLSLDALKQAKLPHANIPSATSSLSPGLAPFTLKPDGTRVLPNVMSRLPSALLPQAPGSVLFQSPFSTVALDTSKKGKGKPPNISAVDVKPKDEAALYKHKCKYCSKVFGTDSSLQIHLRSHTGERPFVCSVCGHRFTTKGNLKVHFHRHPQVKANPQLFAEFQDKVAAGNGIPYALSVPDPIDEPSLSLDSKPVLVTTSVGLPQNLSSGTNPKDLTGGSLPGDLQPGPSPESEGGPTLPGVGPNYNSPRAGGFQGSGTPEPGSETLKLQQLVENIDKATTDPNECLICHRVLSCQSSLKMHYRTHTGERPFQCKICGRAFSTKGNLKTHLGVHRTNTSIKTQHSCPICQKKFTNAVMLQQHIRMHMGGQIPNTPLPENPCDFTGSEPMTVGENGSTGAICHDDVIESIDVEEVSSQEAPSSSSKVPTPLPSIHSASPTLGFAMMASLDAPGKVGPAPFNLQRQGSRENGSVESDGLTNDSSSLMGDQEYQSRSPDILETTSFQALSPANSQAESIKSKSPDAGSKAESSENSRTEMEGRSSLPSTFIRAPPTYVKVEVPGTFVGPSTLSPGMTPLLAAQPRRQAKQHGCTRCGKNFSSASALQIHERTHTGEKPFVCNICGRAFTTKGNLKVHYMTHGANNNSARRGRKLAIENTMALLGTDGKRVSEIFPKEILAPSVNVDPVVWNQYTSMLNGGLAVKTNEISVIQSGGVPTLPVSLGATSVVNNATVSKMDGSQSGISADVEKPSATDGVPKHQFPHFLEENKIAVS
Technique: universal PBM
Form: double-stranded DNA, one strand shown
Sample: in vitro
Concentration: 600 nM
Setting: 8-mer, flanks averaged, mean of replicates
Direction: higher = stronger binding
With `GCTCAACC` the E-score was -0.196.
The E-score of `GACTTTGC` is reported as -0.17.
`CTGCAGTA` has an E-score of -0.000825.
For `CGAAGAAC`, the E-score was 0.0466.
With `AGATCGCG` the E-score was -0.254.
The E-score of `CCAAGAGA` is reported as -0.0194.
`AGCAAAGG` has an E-score of 0.0565.
For `CAAACCCC`, the E-score was -0.16.
The E-score of `TGCCTCCA` is reported as -0.118.
`CGAACGAC` gave an E-score of -0.118.
The E-score of `GAAAGCTA` is reported as -0.0509.
`AAGGAGGC` has an E-score of -0.261.
For `CGCTGGCA`, the E-score was -0.212.
`GACTCAGA` has an E-score of -0.122.
For `CACCTACC`, the E-score was -0.143.
For `AACCAGTC`, the E-score was -0.00547.
For `GCATTTAC`, the E-score was 0.105.
The E-score of `CCACTCGC` is reported as -0.274.
With `CACGATGA` the E-score was 0.0553.
The E-score of `ATCCCTTC` is reported as -0.0998.
With `AGAGCACG` the E-score was -0.185.
For `GTAACAGA`, the E-score was 0.15.
With `AACTTGTA` the E-score was 0.25.
The E-score of `TAGCAAGA` is reported as 0.185.
The E-score of `ACAAGGGC` is reported as -0.281.

Sample 2
Target: CCNA2, cyclin fold, Cln2 fusion (human)
Technique: yeast growth competition, sequencing
Sample: yeast
Setting: strong parent motif
Reference: not given
Direction: higher = stronger binding
Parent: SAMHD1 docking peptide (human); ASKSRVQLFKDDP; partner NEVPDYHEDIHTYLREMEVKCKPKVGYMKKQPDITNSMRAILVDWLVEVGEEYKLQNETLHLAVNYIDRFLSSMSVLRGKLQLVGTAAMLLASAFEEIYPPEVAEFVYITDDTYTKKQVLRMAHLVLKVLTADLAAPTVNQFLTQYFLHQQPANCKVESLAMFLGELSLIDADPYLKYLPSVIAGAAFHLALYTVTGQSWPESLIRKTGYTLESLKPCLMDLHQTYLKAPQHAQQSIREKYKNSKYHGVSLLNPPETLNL
For `K3S`, “normalised enrichment score” read 1.96.
For `Q7V`, “normalised enrichment score” read 1.33.
For `R5A`, “normalised enrichment score” read 0.43.
For `F9W`, “normalised enrichment score” read 0.863.
For `K3Q`, “normalised enrichment score” read 0.743.
`D11H`: “normalised enrichment score” 1.88.
`S4R`: “normalised enrichment score” 1.35.
Under “normalised enrichment score”, `V6C` is recorded as 2.44.
For `L8N`, “normalised enrichment score” read 0.401.
Under “normalised enrichment score”, `S4C` is recorded as 6.04.
For `D11K`, “normalised enrichment score” read 1.54.
`F9M`: “normalised enrichment score” 0.276.
For `L8H`, “normalised enrichment score” read -0.101.
`D11V`: “normalised enrichment score” 1.8.
`D12N` — result for “normalised enrichment score”: 2.72.
Under “normalised enrichment score”, `Q7F` is recorded as 1.2.
`L8E`: “normalised enrichment score” 0.16.
`S2E` — result for “normalised enrichment score”: 1.59.
`V6L`: “normalised enrichment score” 1.64.

Sample 3
Target: ABI1, truncated, D143A, DHFR fusion (Arabidopsis thaliana)
Technique: DHFR PCA, deep sequencing
Sample: yeast
Setting: methotrexate growth selection, single substitutions
Added: (+)-ABA 0.032 µM
Reference: wild-type fitted maximum
Direction: higher = stronger binding
Parent: PYL1, truncated, DHFR fusion (Arabidopsis thaliana); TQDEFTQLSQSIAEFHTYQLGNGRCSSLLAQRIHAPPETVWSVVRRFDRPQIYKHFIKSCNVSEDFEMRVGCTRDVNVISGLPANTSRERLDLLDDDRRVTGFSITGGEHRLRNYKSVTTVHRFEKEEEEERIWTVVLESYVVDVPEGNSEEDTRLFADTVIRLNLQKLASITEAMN
For `D48Y`, “relative binding score” read 1.94%.
Under “relative binding score”, `H122V` is recorded as 1.84%.
Under “relative binding score”, `F15A` is recorded as -2.28%.
`T6L` — result for “relative binding score”: 33.6%.
Under “relative binding score”, `V40E` is recorded as 2.33%.
`P146S` — result for “relative binding score”: 9.78%.
`R163G` — result for “relative binding score”: 8.06%.
For `C25H`, “relative binding score” read -10.3%.
`E67K` — result for “relative binding score”: 18.5%.
For `P83R`, “relative binding score” read 12.8%.
Under “relative binding score”, `L28R` is recorded as 4.58%.
Under “relative binding score”, `T1W` is recorded as 20.5%.

Sample 4
Target: RNA binding protein fox-1 homolog 2, RRM domain, GST-SBP tag (RBFOX2, Homo sapiens, UniProt O43251-10, residues 100-194)
Technique: RNA Bind-n-Seq
Form: RNA
Sample: in vitro
Concentration: 365 nM
Setting: natural RNA segment, single round, ends assumed
Reference: no-protein control
Direction: higher = stronger binding
Construct (chain): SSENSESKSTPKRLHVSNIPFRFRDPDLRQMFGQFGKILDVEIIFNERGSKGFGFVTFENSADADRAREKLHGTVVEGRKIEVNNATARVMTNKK
Under “RBNS enrichment (R)”, `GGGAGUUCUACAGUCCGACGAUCCCACUCACCAGCUGAGGUCUGUCAGGUUUUGAAGGCUUGAUUUUGUGGUGGGUUUGGGGCUUAGUUUUCCUUUUUUUCAUUUUGAUUUUUGAAAGUGAAGAUGAUGCCCUUGGAAUUCUCGGGUGCCAA` is recorded as 0.296.
`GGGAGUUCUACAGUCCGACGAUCAGGUUUUGGUAAAUGUGAACUUGUUUCUAGGUUAACAGUCAAGGAGAGGGACAUGAAUCGUGCAUGUUGUUGUUUUUGACAGUGUGGCUGUCAGUUUUGAAUUCCUCCAUUGGAAUUCUCGGGUGCCAA`: “RBNS enrichment (R)” 1.54.
For `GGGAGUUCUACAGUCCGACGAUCCAGUCCCUUAAUUUCUUGUGUGCAACUCUGUUUUAUCCUAGAACUAAGAGAGCAUUGGUUUGUUAAAGAGCUUUCAAUGUAUAUUAAAACCUUCAAUACUCAGAAAUGAUUGGAAUUCUCGGGUGCCAA`, “RBNS enrichment (R)” read 0.546.
`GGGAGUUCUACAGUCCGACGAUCCCCGACAUUGAUGUUUCUUCCUGUUGCAAGGUGGGGCUUUAAACUUUCAAGGUACAAAAGUAUGUCUUUUAAAAUGGAAGUAACGUUUGUUUAGCUAGUGAAUGUGACAAUGGAAUUCUCGGGUGCCAA` — result for “RBNS enrichment (R)”: 0.552.
Under “RBNS enrichment (R)”, `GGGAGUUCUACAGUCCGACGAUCCCACCGCACCAGGACUGCGCCUGCUGAGAGCCAUCCCACUCCCUUUCCCCUCUUCCCUGUCUUCCCCACCUUCCCCCAACUACCCGGGCCUGACCCGGCCCCUACCAGCCUGGAAUUCUCGGGUGCCAA` is recorded as 2.97.
For `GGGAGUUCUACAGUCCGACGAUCACACCAUAAAAGAAAUAGGCUUUUUGUGCCUUUUGCUGUUAAUGUUUAAUUUACAAACUGUUUUGGUAAAUCUCUUAAUGUAAGUAGCUAUUUGACUUUGGAAUUUUGCAUGGAAUUCUCGGGUGCCAA`, “RBNS enrichment (R)” read 15.4.
Under “RBNS enrichment (R)”, `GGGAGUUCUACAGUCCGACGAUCUAAUCAGUGGUGCUUUUGUGCCUAGGUUUUAUGUGAUUUUAAUGAAAUAUGGAUAGUUGUGGCCACCUGCUGACUAUUUGUGGUUUAAAAUAAAAAGGUUUUCUUGUCUGUGGAAUUCUCGGGUGCCAA` is recorded as 0.27.
`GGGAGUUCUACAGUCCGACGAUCAGCAACUUACAGAGGGUAUUUUAGCUCAGUUCAGGUGUGGGGUCCACAGUGCUGAGGAAAUCAUAGUGGCAGAAGGAGGAGGUGACUGGUUACAUCCCGUCCAGUCAGGAUGGAAUUCUCGGGUGCCAA`: “RBNS enrichment (R)” 1.04.
`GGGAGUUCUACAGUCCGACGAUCUUUGCAAUUGCUUUUGAUUUUUAGUCCUUUGGAACAAAUGUGUGAUGUUAUGUCUGAUGUUGUGUUUUUAGAGCUGUGAAAAGUCUGAAAAAUUUCAAGGGGUAUUAUUUUGGAAUUCUCGGGUGCCAA`: “RBNS enrichment (R)” 0.499.
`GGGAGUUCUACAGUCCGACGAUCCACAUGUUCUUUCUUUUCCUGAGUGAAAAGCAAAGGUCCCACGGUGUGUGCUGUGGUGCACCGCCUGGCUUUGGGGGUCCCGGAGGCAGGCUGCCUAGACUCACAGCCUCUGGAAUUCUCGGGUGCCAA` — result for “RBNS enrichment (R)”: 0.203.
For `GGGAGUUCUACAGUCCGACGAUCAAUGGCUUUGUGAAUGUAAAUAAGGGCAGUUCAGGGCCCUGAAGGAGUGAGAUGUUUUUCUAUAUUUUAGAACUAUUUUUGGAUAAAUUAUAUAUUUUCCUUCCUGAUUGUGGAAUUCUCGGGUGCCAA`, “RBNS enrichment (R)” read 1.26.
For `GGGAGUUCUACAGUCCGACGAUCUUCUGACUUUUUAAAUCAUCAUCAUUAUUUUUAAUUAAAAAAAAAUGCCUGUAUGCCUUUUUCUGGUCCAAUUGUAAAUAAAAUGCCAUUGUCCUGUUGUCUCAACUCGAUGGAAUUCUCGGGUGCCAA`, “RBNS enrichment (R)” read 0.663.

Sample 5
Target: PABPC1L2, full length, GST fusion (mouse, UniProt A0ABA7IW68)
Technique: RNAcompete
Form: RNA
Sample: in vitro
Concentration: 20 nM
Setting: 7-mer, probes averaged, single round
Reference: mean of 7-mers
Direction: higher = stronger binding
Target sequence (chain): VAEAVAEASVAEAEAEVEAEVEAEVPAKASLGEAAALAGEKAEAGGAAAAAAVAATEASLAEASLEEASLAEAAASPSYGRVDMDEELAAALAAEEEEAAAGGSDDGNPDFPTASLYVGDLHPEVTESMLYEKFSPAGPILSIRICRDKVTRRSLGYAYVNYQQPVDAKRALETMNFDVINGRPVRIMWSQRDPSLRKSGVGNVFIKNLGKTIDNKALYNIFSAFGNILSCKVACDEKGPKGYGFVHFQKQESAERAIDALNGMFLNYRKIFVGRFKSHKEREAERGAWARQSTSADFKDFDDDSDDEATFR
With `AGUCGAG` the 7-mer Z-score was 0.0152.
`UCUUGUA` gave a 7-mer Z-score of -0.423.
The 7-mer Z-score of `CUGAGAU` is reported as -0.0536.
The 7-mer Z-score of `GUUUUCG` is reported as -0.423.
`CAGAAUA` gave a 7-mer Z-score of 0.137.
`UACGCGG` has a 7-mer Z-score of -0.0663.
`GAGUUGU` gave a 7-mer Z-score of -0.342.
`CAAAGGA` has a 7-mer Z-score of 0.354.
`AUUCAUU` has a 7-mer Z-score of -0.224.
For `CUCUGUG`, the 7-mer Z-score was -0.222.
`AAGCCGC` gave a 7-mer Z-score of -0.15.
With `GGCCAGU` the 7-mer Z-score was -0.153.
With `AGUUCAU` the 7-mer Z-score was -0.112.
For `AGUGCGU`, the 7-mer Z-score was -0.26.
The 7-mer Z-score of `GAAGUGU` is reported as -0.146.
`GCGUACG` gave a 7-mer Z-score of -0.284.
`GGACCCG` has a 7-mer Z-score of -0.155.
`UCGGUAG` gave a 7-mer Z-score of -0.0536.
`AUGUUGU` gave a 7-mer Z-score of -0.244.
The 7-mer Z-score of `GCUUAUG` is reported as -0.217.
`AGUGGCU` gave a 7-mer Z-score of 0.113.
With `AAUCAAU` the 7-mer Z-score was 0.186.
`CGCUCAU` has a 7-mer Z-score of -0.3.
For `AUUGGGU`, the 7-mer Z-score was 0.184.
For `GCGCCCC`, the 7-mer Z-score was -0.396.

Excerpt of the above (sample 2):
For `L8N`, “normalised enrichment score” read 0.401.
Under “normalised enrichment score”, `S4C` is recorded as 6.04.
For `D11K`, “normalised enrichment score” read 1.54.
`F9M`: “normalised enrichment score” 0.276.
For `L8H`, “normalised enrichment score” read -0.101.
